Literature values as cited in several papers.
Lines come from different studies, so protocols differ. ± gives the spread as reported. Values after ≈ are worked out from the molar mass of the structure shown.

SMILES	target or system	effect on	mode	medium	concentration	endpoint	result
COC1C2(O)C(=O)N3C=CC(C)(C)c4[nH]c5ccccc5c4C=C3C(=O)N2C23C(C)C(C)(C)N2c2ccccc2C13O (centres unmarked)	GABA-A receptor α1β2γ2, human				10 µM	activity	inactive
COC(=O)c1c(C)cc(O)c(=O)c(O)c1C(=O)OC	HIV RNase H	enzyme activity				IC50	230 nM
CSCC[C@H](NC(=O)[C@H](Cc1ccccc1)NC(=O)CNC(=O)[C@@H](C)NC(=O)[C@@H](N)Cc1ccc(O)cc1)C(=O)N1CCC[C@H]1C(=O)N[C@@H](CC(C)C)C(=O)N[C@@H](Cc1c[nH]c2ccccc12)C(=O)NCc1cc(C(F)(F)F)cc(C(F)(F)F)c1	mu opioid receptor, guinea pig			guinea pig ileum		IC50	490 ± 29 nM
O=c1c2ccccc2[se]n1Cc1ccc(Cl)cc1	SARS-CoV-2 main protease	enzyme activity	inhibitor			IC50	820 nM
CCCC(=O)SCC[N+](C)(C)C	butyrylcholinesterase				concentration not given	substrate activation factor b	1.7
CC[C@H](C)[C@H](NC(=O)CNC(=O)[C@H](CS)NC(=O)CNC(=O)[C@H](CO)NC(=O)[C@@H](NC(=O)[C@@H](NC(=O)[C@@H](NC(=O)[C@H](CC(N)=O)NC(=O)[C@@H](NC(=O)[C@H](CO)NC(=O)[C@H](CS)NC(=O)[C@H](C)NC(=O)[C@H](Cc1ccccc1)NC(=O)[C@H](CCCNC(=N)N)NC(=O)[C@H](CS)NC(=O)[C@H](CCCCN)NC(=O)[C@@H](NC(=O)CNC(=O)[C@@H](N)CO)[C@@H](C)CC)[C@@H](C)CC)[C@@H](C)O)[C@@H](C)O)[C@@H](C)CC)C(=O)N[C@@H](CO)C(=O)N[C@@H](CS)C(=O)N[C@@H](CCCCN)C(=O)N[C@@H](Cc1ccccc1)C(=O)O	Pseudomonas aeruginosa					MIC	16 µM (≈ 40 µg/mL)
Cc1c(CC(=O)N[C@@H](Cc2ccccc2)C(=O)N(C)c2ccccc2)c2ccccc2n1C(C)C	HIV-1 capsid hexamer wild type					ΔTm	7.8 °C
Cc1ccc([Se]c2c(O)cc(O)c3c(=O)c(O)c(-c4ccc(O)c(O)c4)oc23)cc1	SARS-CoV-2 main protease	enzyme activity	inhibitor			IC50	11000 nM
Cc1ccc(N(C)C(=O)[C@H](Cc2ccccc2)NC(=O)Cc2c[nH]c3ccc(O)cc23)cc1	HIV-1 capsid hexamer wild type					ΔTm	6.3 °C
CC[C@H](C)[C@H](NC(=O)[C@H](CCCCN)NC(=O)[C@H](CCC(N)=O)NC(=O)[C@H](C)NC(=O)[C@H](Cc1ccc(O)cc1)NC(=O)[C@H](CCC(=O)O)NC(=O)[C@H](CCCCN)NC(=O)[C@H](C)NC(=O)[C@H](CC(C)C)NC(=O)[C@H](CCCNC(=N)N)NC(=O)[C@H](CC(C)C)NC(=O)CNC(=O)[C@H](CCCCN)NC(=O)[C@H](C)NC(=O)[C@H](CCCNC(=N)N)NC(=O)[C@H](CC(C)C)NC(=O)[C@H](CCCCN)NC(=O)[C@H](CCC(N)=O)NC(=O)[C@H](C)NC(=O)[C@H](CC(C)C)NC(=O)[C@H](CCCCN)NC(=O)[C@H](CO)NC(=O)[C@H](CCCCN)NC(=O)[C@@H](N)Cc1c[nH]c2ccccc12)C(=O)N[C@@H](CC(C)C)C(=O)N[C@@H](CC(N)=O)C(=O)O	Staphylococcus aureus					MIC	8 µM (≈ 24.4 µg/mL)
CCn1c(C)c(CC(=O)N[C@@H](Cc2ccccc2)C(=O)N(C)c2cccc(Cl)c2)c2ccccc21	HIV-1 capsid hexamer wild type					ΔTm	9.2 °C
COC(=O)c1c(CCl)cc(O)c(=O)c(O)c1C(=O)OC	HIV RNase H	enzyme activity				IC50	800 nM
O=c1c2ccccc2[se]n1-c1cccc(C(F)(F)F)c1	SARS-CoV-2 main protease	enzyme activity	inhibitor			IC50	2770 nM
COc1cc(C(=O)Nc2ccc(NC(=O)c3cc(OC)c(OC)c(OC)c3)cc2)cc(OC)c1OC	DHFR, human		inhibitor			IC50	4800 nM

Some of these lines once more:
SMILES	target or system	effect on	mode	medium	concentration	endpoint	result
CCn1c(C)c(CC(=O)N[C@@H](Cc2ccccc2)C(=O)N(C)c2cccc(Cl)c2)c2ccccc21	HIV-1 capsid hexamer wild type					ΔTm	9.2 °C
